Results gathered from unrelated publications.
Numbered parts are unrelated; each lists some results of a single study.
Chain of UniProt Q86UX6 (whole entry, looked up): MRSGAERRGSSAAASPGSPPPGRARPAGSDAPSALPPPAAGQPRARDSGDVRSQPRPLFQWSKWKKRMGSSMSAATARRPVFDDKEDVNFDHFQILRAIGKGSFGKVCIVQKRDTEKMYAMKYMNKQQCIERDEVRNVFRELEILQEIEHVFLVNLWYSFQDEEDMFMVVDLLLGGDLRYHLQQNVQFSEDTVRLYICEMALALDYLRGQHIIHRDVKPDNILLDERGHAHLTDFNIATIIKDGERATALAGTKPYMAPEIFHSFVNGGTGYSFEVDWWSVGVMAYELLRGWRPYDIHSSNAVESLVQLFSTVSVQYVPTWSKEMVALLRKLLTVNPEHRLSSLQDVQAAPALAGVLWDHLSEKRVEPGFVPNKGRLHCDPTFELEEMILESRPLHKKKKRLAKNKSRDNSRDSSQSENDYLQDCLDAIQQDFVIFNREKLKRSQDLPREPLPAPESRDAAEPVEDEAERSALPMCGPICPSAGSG
Chain of UniProt O95382 (whole entry, looked up): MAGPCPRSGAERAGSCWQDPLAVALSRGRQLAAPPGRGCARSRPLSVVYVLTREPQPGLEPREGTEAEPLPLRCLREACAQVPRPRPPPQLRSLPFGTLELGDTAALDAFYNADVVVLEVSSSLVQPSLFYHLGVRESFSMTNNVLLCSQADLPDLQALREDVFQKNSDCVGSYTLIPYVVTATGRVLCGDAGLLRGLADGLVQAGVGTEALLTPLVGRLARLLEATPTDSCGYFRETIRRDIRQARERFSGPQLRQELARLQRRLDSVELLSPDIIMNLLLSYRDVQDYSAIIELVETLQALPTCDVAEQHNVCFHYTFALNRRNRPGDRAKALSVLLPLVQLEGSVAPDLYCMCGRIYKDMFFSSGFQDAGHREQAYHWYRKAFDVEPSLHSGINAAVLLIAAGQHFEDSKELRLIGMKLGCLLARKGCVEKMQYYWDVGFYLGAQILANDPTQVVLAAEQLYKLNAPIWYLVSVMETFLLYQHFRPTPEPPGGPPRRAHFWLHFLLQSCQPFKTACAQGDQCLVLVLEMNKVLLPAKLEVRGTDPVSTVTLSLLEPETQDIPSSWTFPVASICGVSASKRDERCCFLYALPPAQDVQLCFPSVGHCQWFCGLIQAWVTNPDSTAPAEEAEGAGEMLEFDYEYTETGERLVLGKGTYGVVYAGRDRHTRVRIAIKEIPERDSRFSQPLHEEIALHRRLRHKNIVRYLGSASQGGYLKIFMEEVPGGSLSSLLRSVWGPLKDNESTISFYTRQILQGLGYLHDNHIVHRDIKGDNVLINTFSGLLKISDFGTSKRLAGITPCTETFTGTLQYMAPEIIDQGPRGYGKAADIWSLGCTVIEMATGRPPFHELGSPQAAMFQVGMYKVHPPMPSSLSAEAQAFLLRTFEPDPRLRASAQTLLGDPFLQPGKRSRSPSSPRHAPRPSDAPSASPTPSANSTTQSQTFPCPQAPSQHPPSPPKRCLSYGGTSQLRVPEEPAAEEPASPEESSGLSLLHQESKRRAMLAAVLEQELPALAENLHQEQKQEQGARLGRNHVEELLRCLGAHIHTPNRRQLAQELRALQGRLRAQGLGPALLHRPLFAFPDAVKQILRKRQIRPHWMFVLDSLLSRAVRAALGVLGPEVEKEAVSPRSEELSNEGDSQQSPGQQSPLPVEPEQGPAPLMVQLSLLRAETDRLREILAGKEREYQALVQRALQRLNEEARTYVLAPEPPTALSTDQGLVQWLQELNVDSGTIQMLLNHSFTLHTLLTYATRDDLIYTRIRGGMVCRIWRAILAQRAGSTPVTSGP
Chain of UniProt P53350 (whole entry, looked up): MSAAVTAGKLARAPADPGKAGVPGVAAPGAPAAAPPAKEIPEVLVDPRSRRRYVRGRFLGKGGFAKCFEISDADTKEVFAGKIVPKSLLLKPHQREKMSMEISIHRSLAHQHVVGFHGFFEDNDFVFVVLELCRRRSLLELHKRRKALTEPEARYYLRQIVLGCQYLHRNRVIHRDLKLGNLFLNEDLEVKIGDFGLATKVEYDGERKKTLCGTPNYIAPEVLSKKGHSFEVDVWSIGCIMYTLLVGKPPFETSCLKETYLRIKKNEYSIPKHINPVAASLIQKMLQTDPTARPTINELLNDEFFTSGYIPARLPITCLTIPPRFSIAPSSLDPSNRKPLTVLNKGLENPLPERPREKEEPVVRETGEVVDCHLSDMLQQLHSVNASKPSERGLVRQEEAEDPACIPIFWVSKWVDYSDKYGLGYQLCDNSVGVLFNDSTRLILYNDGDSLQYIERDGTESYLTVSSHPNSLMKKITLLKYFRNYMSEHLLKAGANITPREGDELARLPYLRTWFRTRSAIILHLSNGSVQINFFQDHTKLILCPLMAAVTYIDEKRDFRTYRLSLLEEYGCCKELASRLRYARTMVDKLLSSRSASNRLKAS
Chain of UniProt Q2M2I8 (whole entry, looked up): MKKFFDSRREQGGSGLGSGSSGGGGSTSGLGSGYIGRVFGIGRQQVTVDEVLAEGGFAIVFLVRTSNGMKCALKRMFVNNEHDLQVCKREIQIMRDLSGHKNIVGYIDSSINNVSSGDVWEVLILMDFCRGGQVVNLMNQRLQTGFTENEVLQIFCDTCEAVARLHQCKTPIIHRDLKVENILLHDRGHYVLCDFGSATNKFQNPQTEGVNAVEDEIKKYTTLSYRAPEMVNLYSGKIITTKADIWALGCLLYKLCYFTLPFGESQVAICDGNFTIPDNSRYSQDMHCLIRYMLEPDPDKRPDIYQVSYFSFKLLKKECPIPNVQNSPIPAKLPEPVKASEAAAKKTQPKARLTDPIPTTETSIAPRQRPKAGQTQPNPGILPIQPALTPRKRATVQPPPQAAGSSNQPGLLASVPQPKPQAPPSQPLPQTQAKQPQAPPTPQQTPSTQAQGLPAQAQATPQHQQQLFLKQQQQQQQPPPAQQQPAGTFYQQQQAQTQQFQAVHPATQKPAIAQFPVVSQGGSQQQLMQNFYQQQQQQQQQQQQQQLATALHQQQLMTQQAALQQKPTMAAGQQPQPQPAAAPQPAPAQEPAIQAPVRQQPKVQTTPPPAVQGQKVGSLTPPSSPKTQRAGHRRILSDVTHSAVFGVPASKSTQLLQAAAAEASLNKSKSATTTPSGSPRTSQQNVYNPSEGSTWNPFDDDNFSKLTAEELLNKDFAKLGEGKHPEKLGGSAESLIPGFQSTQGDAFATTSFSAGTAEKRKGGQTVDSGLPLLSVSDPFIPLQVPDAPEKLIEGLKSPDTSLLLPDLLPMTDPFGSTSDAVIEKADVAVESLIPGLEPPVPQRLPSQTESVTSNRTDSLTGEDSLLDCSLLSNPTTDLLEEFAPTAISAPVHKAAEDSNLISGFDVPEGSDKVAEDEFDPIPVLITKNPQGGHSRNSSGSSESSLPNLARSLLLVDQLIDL
Chain of UniProt Q99759 (whole entry, looked up): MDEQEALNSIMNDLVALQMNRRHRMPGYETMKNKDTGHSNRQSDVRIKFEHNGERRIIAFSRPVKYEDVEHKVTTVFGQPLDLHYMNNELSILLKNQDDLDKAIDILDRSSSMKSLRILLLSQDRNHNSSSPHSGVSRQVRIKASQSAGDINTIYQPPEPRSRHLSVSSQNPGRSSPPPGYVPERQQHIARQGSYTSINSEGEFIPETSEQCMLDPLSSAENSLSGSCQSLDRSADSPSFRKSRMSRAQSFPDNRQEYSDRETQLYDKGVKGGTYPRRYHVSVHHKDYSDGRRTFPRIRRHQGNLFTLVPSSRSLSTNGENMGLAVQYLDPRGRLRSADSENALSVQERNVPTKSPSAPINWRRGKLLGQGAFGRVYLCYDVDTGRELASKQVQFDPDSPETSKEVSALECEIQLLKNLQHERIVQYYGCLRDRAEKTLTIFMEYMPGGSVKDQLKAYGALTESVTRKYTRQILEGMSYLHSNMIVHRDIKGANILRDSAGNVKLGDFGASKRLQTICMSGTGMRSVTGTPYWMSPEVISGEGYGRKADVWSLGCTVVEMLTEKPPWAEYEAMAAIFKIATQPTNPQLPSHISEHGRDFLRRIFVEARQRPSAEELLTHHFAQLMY
Chain of UniProt Q8N752 (whole entry, looked up): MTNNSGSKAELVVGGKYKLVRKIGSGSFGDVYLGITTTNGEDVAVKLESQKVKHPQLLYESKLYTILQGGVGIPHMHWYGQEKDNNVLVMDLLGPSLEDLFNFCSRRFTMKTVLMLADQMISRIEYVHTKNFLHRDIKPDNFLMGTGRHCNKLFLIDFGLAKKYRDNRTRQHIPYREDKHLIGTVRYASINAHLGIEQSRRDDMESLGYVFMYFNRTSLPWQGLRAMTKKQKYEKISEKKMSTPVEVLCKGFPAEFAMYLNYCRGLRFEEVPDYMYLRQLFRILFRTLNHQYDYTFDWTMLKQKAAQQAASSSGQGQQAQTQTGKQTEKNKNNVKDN

Block 1
Target: Myc proto-oncogene protein, bHLH-zipper, MAX partner unstated (MYC, Homo sapiens, UniProt P01106, residues 368-449)
Chain of UniProt P01106 (368-449, looked up): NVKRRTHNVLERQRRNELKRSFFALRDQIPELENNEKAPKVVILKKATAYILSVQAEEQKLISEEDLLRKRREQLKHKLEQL
Technique: protein-binding microarray
Form: double-stranded DNA, one strand shown
Matrix: in vitro
Tested at: not given
Notes: k-mer, scored over probes, only values ≥0.25
Direction: higher = stronger binding
| Oligonucleotide | E-score |
| --- | --- |
| ATGCTGTC | 0.259 |
| GCGCGCGC | 0.281 |
| ACGCGCGT | 0.37 |
| GTCGCCAC | 0.269 |
| CACGAGGG | 0.472 |
| ACACGCCG | 0.395 |
| CCGTGGTC | 0.253 |
| ACTCGTGA | 0.291 |

Block 2
Compound: CN(C)CC#Cc1ccc(OCCCc2sc(N3CCc4cccc(C(=O)Nc5nc6ccccc6s5)c4C3)nc2C(=O)O)c(F)c1
Tested at: 1 µM
| target | assay | remaining binding [%] |
| --- | --- | --- |
| MET (Homo sapiens, UniProt P08581, M1250T) | cell-free assay, competition with immobilised ligand | 100 |
| EGFR (Homo sapiens, UniProt P00533, del747-750/T751S) | cell-free assay, competition with immobilised ligand | 94 |
| MAP3K3 (Homo sapiens, UniProt Q99759) | cell-free assay, competition with immobilised ligand | 90 |
| CDK17 (Homo sapiens, UniProt Q00537) | cell-free assay, competition with immobilised ligand | 99 |
| CSNK1A1L (Homo sapiens, UniProt Q8N752) | cell-free assay, competition with immobilised ligand | 100 |
| PLK1 (Homo sapiens, UniProt P53350) | cell-free assay, competition with immobilised ligand | 100 |
| BMPR2 (Homo sapiens, UniProt Q13873) | cell-free assay, competition with immobilised ligand | 100 |
| ERN1 (Homo sapiens, UniProt O75460) | cell-free assay, competition with immobilised ligand | 84 |
| DYRK1B (Homo sapiens, UniProt Q9Y463) | cell-free assay, competition with immobilised ligand | 87 |
| SRPK1 (Homo sapiens, UniProt Q96SB4) | cell-free assay, competition with immobilised ligand | 100 |
| STK32C (Homo sapiens, UniProt Q86UX6) | cell-free assay, competition with immobilised ligand | 75 |
| Aurora kinase C (AURKC, Homo sapiens, UniProt Q9UQB9) | cell-free assay, competition with immobilised ligand | 9 |
| AAK1 (Homo sapiens, UniProt Q2M2I8) | binding | 91 |
| CHUK (Homo sapiens, UniProt O15111) | cell-free assay, competition with immobilised ligand | 81 |
| MKNK2 (Homo sapiens, UniProt Q9HBH9) | cell-free assay, competition with immobilised ligand | 75 |
| MAP3K6 (Homo sapiens, UniProt O95382) | cell-free assay, competition with immobilised ligand | 82 |

Block 3
Target: Ras GTPase-activating protein-binding protein 1, full length (G3BP1, Homo sapiens, UniProt Q13283)
Chain of UniProt Q13283 (whole entry, looked up): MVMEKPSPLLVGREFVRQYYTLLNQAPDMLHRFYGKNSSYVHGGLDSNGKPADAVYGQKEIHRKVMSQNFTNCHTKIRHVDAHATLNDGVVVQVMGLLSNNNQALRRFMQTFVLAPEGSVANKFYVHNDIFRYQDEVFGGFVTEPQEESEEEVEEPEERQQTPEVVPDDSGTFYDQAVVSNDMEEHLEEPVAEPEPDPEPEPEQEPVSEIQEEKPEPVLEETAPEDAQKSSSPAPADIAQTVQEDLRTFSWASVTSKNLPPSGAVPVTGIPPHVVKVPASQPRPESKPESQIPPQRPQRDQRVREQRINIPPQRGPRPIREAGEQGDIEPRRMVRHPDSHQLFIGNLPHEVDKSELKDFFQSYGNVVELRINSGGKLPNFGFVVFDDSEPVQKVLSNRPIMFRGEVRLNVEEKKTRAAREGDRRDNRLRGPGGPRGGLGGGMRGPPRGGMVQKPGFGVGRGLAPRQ
Technique: RNA Bind-n-Seq
Form: RNA
Matrix: in vitro
Tested at: 200 nM
Notes: whole 134-nt RNA, ends assumed
With: 150 mM LiCl
Reference: input library
Direction: higher = stronger binding
Library: 7-deaza-guanosine replaces G
Shared flanks, not repeated: GGGAGUUCUACAGUCCGACGAUC … UGGAAUUCUCGGGUGUCAAGG
| Oligonucleotide | log2 enrichment |
| --- | --- |
| UGGGAGGUGGAUUUUGUUUAUUUUUUUAGCUCAUUUCCAGGGGUGGGAAUUUUUUUUUAAUAUGUGUCAUGAAAAAAGUUGUUUUUGAAA | -0.306 |
| ACCAUGCAGGUGGGCAUCUUUGGGAAGUGGGGCAAGGGCGGGAUAGGGAGGGGGGUAACACUUUGGGAACAGGUGGUCCCAGGUCGUUUC | 0.2 |
| UUAAUAGAUUGAACUUCAAAAAAAAAUUCUUUCUUAAUUUCUGGAUUAAAAAGUAUGCCUGUGUCUUCUAGACCUUUACCAGAAGAUGAU | -1.46 |
| UGUGCUACACAUCGUAUGUACCGAAUCGGGGAAAAAAAGGGGAAAAAGGGGUUUUUUUGGGGAAAGUAUUAUGUUACGCCGUUCGGAUCU | -0.232 |
| CUCAAGUCCUGUGCUACACAUCGUAUGUACCGAAUCGGGAGGGGAGGGAGGGGAAAGUAUUAUGUUACGCCGUUCGGAUCUGCACUUCCA | 0.0803 |
| UAACUUUAGAGGAGGAUCUGAUGGAUAUGGCAGUGGACGUGGAUUUUGGGAUGGCUAUAAUGGGUAUGGAGGAGGACCUGGAGGUGGCAA | -0.256 |
| CCUCAAGUCCUGUGCUACACAUCGUAUGUACCGAAUCGGGCGGCGGGGCGGGGAAAGUAUUAUGUUACGCCGUUCGGAUCUGCACUUCCA | 0.00521 |
| UAACUUUAGAGGAGGAUCUGAUGGAUAUGGCAGUGGACGUGGAUUUGGGGAUGGCUAUAAUGGGUAUGGAGGUGGACCUGGAGGUGGCAA | 0.0738 |

Other studies, line by line
Read-out: enzyme activity
Mode: inhibitor
Tested at: 0.5 µM
Reference: control
| Compound | target | remaining activity |
| --- | --- | --- |
| CO[C@H]1C[C@@H]2CC[C@@H](C)[C@@](O)(O2)C(=O)C(=O)N2CCCC[C@H]2C(=O)O[C@H]([C@H](C)C[C@@H]2CC[C@@H](O)[C@H](OC)C2)CC(=O)[C@H](C)/C=C(\C)[C@@H](O)[C@@H](OC)C(=O)[C@H](C)C[C@H](C)/C=C/C=C/C=C/1C | JAK3 (Homo sapiens, UniProt P52333) | 92.4% |
| COc1cc2ncnc(Nc3ccc(F)c(Cl)c3)c2cc1OCCCN1CCOCC1 | NEK1 (Homo sapiens, UniProt Q96PY6) | 90.4% |
